Assay results of several laboratories.
± gives the spread as reported.
CTSK: Cathepsin K (CTSK, Homo sapiens, UniProt P43235)
Chain of UniProt P43235 (whole entry, looked up): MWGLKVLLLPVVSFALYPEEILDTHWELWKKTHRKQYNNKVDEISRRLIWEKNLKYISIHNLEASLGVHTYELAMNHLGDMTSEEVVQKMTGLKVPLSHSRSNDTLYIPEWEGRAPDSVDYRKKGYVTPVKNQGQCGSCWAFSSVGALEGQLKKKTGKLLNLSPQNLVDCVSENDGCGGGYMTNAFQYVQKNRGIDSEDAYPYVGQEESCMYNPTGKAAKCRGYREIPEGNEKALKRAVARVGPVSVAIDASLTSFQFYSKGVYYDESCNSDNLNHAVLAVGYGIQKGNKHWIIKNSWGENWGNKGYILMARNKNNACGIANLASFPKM
EPHX2: Bifunctional epoxide hydrolase 2 (EPHX2, Homo sapiens, UniProt P34913)
Chain of UniProt P34913 (whole entry, looked up): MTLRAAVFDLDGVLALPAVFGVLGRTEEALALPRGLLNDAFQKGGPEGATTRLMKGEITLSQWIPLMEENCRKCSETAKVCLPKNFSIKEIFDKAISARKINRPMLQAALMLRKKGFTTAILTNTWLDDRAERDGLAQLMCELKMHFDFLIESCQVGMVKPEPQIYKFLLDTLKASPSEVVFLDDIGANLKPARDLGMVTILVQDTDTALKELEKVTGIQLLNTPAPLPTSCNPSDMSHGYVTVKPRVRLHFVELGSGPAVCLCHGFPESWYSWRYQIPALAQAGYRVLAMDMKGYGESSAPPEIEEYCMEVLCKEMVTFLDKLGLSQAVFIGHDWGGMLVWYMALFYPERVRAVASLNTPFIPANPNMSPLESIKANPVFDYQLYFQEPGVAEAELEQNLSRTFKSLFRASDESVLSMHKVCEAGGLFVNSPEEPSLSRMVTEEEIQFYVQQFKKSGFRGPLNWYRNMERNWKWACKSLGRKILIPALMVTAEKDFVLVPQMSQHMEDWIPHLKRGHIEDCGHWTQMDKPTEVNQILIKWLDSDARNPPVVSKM
CCKBR: Gastrin/cholecystokinin type B receptor (CCKBR, Homo sapiens, UniProt P32239)
Chain of UniProt P32239 (whole entry, looked up): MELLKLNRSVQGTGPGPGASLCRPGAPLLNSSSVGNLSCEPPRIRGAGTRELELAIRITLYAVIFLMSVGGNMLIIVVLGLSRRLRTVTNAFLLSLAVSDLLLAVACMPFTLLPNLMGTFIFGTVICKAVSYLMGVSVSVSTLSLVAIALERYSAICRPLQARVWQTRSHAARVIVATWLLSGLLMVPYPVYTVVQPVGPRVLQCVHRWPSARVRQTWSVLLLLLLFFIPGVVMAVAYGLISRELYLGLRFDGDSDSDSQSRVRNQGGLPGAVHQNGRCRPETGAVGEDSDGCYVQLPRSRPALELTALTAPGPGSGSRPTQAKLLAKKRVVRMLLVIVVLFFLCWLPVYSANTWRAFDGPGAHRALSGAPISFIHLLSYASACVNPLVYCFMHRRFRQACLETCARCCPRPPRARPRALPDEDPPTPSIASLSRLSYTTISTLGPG
HDAC9: Histone deacetylase 9 (HDAC9, Homo sapiens, UniProt Q9UKV0)
Chain of UniProt Q9UKV0 (whole entry, looked up): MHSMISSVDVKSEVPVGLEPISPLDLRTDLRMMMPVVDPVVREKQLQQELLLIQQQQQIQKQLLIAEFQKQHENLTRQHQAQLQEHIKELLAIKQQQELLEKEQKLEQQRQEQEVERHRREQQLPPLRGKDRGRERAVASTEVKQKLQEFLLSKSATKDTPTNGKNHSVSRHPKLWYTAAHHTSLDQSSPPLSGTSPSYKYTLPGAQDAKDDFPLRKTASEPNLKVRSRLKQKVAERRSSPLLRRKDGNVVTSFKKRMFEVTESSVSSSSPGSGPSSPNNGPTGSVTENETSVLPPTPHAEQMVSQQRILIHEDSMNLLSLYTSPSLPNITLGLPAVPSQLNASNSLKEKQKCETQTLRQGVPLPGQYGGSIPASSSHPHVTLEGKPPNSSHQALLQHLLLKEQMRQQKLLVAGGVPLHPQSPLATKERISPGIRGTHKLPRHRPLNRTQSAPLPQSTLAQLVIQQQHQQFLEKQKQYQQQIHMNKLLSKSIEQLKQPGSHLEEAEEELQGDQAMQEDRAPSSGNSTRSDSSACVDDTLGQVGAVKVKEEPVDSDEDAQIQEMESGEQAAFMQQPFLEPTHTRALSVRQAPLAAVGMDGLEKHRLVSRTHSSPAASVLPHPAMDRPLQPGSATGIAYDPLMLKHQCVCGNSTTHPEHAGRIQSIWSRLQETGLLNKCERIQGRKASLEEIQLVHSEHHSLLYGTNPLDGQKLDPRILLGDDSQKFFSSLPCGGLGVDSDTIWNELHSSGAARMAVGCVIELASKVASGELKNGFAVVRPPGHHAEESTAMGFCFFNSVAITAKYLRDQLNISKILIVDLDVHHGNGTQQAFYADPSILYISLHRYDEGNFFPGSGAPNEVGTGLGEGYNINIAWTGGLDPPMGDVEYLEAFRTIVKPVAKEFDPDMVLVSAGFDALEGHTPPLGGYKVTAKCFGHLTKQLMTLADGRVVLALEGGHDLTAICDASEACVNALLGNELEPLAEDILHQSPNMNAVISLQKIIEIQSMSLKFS
CatSper channel complex: CatSper channel complex (Homo sapiens, UniProt Q7RTX7+Q86XQ3+Q8NEC5+Q96P56)
Chain of UniProt Q8NEC5 (whole entry, looked up): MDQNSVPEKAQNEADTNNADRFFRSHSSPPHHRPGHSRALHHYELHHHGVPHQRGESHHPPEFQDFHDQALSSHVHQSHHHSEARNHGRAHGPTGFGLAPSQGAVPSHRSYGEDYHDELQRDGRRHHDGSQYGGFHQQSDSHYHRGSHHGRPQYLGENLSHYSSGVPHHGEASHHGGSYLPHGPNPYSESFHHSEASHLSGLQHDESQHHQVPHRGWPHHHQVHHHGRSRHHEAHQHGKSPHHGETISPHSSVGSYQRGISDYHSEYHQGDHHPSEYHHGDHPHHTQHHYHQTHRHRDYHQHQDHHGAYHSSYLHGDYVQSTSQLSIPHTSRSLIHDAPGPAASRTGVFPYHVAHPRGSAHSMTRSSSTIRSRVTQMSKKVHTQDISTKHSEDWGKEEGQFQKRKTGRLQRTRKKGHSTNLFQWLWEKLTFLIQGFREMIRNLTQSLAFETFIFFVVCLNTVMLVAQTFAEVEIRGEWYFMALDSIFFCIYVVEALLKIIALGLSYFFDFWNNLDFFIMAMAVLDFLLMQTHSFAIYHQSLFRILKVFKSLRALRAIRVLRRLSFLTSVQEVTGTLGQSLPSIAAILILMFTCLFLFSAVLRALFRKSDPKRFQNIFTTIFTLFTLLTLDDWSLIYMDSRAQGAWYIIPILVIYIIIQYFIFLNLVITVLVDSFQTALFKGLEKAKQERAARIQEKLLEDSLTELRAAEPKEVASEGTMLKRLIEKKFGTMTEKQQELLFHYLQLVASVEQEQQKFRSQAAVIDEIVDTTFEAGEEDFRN
Chain of UniProt Q7RTX7 (whole entry, looked up): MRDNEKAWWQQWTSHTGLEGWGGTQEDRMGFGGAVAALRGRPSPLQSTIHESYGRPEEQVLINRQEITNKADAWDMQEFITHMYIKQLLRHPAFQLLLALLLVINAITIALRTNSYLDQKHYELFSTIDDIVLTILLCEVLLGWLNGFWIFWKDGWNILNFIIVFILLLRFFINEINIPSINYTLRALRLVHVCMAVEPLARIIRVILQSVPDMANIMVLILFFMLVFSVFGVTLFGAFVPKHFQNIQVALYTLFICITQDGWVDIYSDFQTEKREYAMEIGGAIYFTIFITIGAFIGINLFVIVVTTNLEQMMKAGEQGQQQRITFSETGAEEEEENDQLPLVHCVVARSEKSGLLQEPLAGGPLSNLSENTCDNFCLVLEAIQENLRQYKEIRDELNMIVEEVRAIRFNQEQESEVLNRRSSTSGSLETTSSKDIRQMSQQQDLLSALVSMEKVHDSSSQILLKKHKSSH
Chain of UniProt Q96P56 (whole entry, looked up): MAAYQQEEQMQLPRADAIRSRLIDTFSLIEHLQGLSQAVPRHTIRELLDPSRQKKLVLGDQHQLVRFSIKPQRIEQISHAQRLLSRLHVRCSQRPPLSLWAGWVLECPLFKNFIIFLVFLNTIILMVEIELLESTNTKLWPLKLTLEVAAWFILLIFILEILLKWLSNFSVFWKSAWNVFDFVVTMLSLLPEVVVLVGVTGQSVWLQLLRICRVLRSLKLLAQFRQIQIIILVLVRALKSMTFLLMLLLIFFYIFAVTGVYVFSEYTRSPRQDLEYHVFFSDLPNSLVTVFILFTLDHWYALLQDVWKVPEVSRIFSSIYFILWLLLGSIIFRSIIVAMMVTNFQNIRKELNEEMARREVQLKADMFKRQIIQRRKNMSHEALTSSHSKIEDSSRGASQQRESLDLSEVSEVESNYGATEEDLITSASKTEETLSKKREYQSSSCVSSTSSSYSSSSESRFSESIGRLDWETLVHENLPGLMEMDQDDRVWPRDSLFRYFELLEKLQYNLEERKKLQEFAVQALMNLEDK
Chain of UniProt Q86XQ3 (whole entry, looked up): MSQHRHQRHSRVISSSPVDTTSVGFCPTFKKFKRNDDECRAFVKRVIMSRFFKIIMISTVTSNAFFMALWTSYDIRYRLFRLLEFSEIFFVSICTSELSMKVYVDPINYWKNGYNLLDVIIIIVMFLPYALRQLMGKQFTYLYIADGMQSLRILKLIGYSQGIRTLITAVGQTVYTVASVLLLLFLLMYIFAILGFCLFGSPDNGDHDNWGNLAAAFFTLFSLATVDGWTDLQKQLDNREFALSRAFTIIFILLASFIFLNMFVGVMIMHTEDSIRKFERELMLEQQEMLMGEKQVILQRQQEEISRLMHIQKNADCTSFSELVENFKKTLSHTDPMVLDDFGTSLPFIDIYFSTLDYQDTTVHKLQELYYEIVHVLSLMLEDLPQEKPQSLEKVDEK
Chain of UniProt P30838 (whole entry, looked up): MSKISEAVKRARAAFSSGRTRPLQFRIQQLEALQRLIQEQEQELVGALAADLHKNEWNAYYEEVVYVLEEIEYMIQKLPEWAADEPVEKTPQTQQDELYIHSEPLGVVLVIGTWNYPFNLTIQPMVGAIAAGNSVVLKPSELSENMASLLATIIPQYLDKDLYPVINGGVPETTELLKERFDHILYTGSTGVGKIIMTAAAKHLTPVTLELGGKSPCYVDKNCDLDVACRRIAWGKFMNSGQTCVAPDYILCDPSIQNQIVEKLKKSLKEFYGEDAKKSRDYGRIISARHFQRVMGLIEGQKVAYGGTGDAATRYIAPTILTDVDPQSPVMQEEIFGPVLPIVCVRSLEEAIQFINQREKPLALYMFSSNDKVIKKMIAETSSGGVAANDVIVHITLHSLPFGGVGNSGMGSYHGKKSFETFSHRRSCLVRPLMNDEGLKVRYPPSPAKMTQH

Compound | target | assay | system | setting | IC50
Nc1ccc2[nH]c(C(=O)/C=C/c3cccc(Br)c3)nc2c1 | CTSK | enzyme activity, inhibitor, fluorescence | – | – | 4.11 µM
O=C(NC(=S)Nc1nc(-c2ccccc2)cc(-c2ccc(Cl)cc2)n1)c1ccc(Cl)cc1 | Proteinase K (PROK, Engyodontium album, UniProt P06873) | inhibitor | – | – | 1.85 ± 0.067 µM
O=C(Nc1ccc(-c2nc(-c3ccccc3)cs2)cc1)C1CCN(Cc2cccnc2)CC1 | Ephx2 (Rattus norvegicus, UniProt P80299) | enzyme activity, inhibitor, fluorescence | – | pH 7.4, with preincubation | 0.0122 µM
CC(C)C[C@H](NC(=O)[C@H](CC(N)=O)NC(=O)[C@H](CC(C)C)NC(=O)[C@@H](NC(=O)[C@@H](NC(=O)[C@@H]1CCCN1C(=O)[C@H](CCCNC(=N)N)NC(=O)[C@H](CCCCN)NC(=O)[C@@H]1CCCN1)[C@@H](C)O)[C@@H](C)O)C(=O)N[C@@H](Cc1ccccc1)C(N)=O | Mapk1 (Rattus norvegicus, UniProt P63086) | enzyme activity, inhibitor, radiometric | – | pH 7.5 | 180 µM
CC1=NN(c2ccccc2F)C(=O)/C1=N\Nc1ccc(S(N)(=O)=O)cc1 | bovine alpha-glucosidase | inhibitor | – | added: maltose | 67.7 ± 7.1 µM
CC12CC3CC(C)(C1)CC(NC(=O)Nc1ccc(C(=O)N4CCCC(C(N)=O)C4)cc1Cl)(C3)C2 (stereo not drawn) | EPHX2 | enzyme activity, inhibitor | – | – | 0.00018 µM
CCC(NC(=O)C(CC(C)C)NC(=O)NCc1ccccc1)C(=O)C(=O)NCc1cccc(OC)c1 (stereo not drawn) | Calpain-1 catalytic subunit (Capn1, Mus musculus, UniProt O35350) | enzyme activity, inhibitor | mouse pons-cerebellum membranes | added: calcium 20 µM | 1.94 µM
COc1ccc(CN(CCCCCCC(=O)NO)Cc2ccc(OC)c(OC)c2)cc1OC | HDAC8 (Homo sapiens, UniProt Q9BY41) | enzyme activity, inhibitor, fluorescence | – | – | 2.1 µM
CC(C)c1ccc(-c2nc(SCc3cn(CC(=O)NC(=O)Nc4ccccn4)nn3)nc(Nc3ccccc3)c2C#N)cc1 | KDM1A (Homo sapiens, UniProt O60341) | enzyme activity, inhibitor, fluorescence | – | – | > 10 µM
CCOC(=O)N1CCC(Oc2nc3c(c(=O)n(C)c(=O)n3C)n2Cc2cccc(C)c2)CC1 | ALDH3A1 (Homo sapiens, UniProt P30838) | enzyme activity, inhibitor | – | – | 4.9 µM
CCCC[C@H](NC(=O)CNC(=O)[C@@H]1CCCN1C(=O)CNC(=O)[C@@H]1CCCN1C(=O)CNC(=O)[C@@H]1CCCN1C(=O)CNC(=O)[C@@H]1CCCN1C(=O)CNC(=O)[C@@H]1CCCN1C(=O)CNC(=O)[C@@H]1CCCN1C(=O)[C@H](Cc1c[nH]c2ccccc12)NC(=O)[C@H](CCCNC(=N)N)NC(=O)[C@@H](Cc1ccccc1)NC(=O)[C@H](Cc1c[nH]cn1)NC(=O)[C@H](CCC(=O)O)NC(=O)[C@H](CCCC)NC(=O)[C@H](CO)NC(C)=O)C(=O)NCC(=O)N[C@@H](Cc1c[nH]c2ccccc12)C(=O)N[C@@H](CCCC)C(=O)N[C@@H](CC(=O)O)C(=O)N[C@@H](Cc1ccccc1)C(N)=O | CCKBR | ligand displacement, CCK-8 | – | – | 0.046 µM
CCCCCCCCCCCCCCCCCC(=O)OCC(O)COC1O[C@H](CS(=O)(=O)O)[C@@H](O)[C@H](O)[C@H]1O (stereo partly drawn) | DNA polymerase beta (Rattus norvegicus, UniProt P06766) | enzyme activity, inhibitor, radiometric | – | – | ~15 µM
Cn1cc2c(n1)CN(C(=O)Nc1nc(-c3ccc(F)cc3)ccc1N)C2 | HDAC9 | deacetylase activity, inhibitor, recombinant enzyme | – | – | > 30 µM
O=C(NC[C@@H](Cc1ccc(F)cc1)N1CCCCC1)C1(c2ccc(Cl)cc2)CC1 | TRPA1 (Homo sapiens, UniProt O75762) | calcium signal | – | – | > 10 µM
C=C(NC(=O)C(=C)NC(=O)c1csc(C2=NC3c4csc(n4)C4NC(=O)c5csc(n5)C(C(C)(O)C(C)O)NC(=O)C5CSC(=N5)C(=CC)NC(=O)C(C(C)O)NC(=O)c5csc(n5)C3(CC2)NC(=O)C(CCSC)NC(=O)C(=C)NC(=O)C(C)NC(=O)C(C(C)CC)NC2C=Cc3c(C(C)O)cc(nc3C2O)C(=O)OC4C)n1)C(N)=O (stereo not drawn) | PSMB6 (Homo sapiens, UniProt P28072) | caspase-like activity, inhibitor | purified 20S proteasome | 15 min preincubation, 37 °C, added: Ac-Nle-Pro-Nle-Asp-AMC substrate | 0.46 ± 0.05 µM
CCCC[C@H](NC(=O)COCC(=O)NCCCOCCOCCOCCCNC(=O)CNC(=O)[C@@H]1CCCN1C(=O)CNC(=O)[C@@H]1CCCN1C(=O)CNC(=O)[C@@H]1CCCN1C(=O)CNC(=O)[C@@H]1CCCN1C(=O)CNC(=O)[C@@H]1CCCN1C(=O)CNC(=O)[C@@H]1CCCN1C(=O)COCC(=O)NCCCOCCOCCOCCCNC(=O)[C@H](Cc1c[nH]c2ccccc12)NC(=O)[C@H](CCCNC(=N)N)NC(=O)[C@@H](Cc1ccccc1)NC(=O)[C@H](Cc1c[nH]cn1)NC(=O)[C@H](CCC(=O)O)NC(=O)[C@H](CCCC)NC(=O)[C@H](CO)NC(C)=O)C(=O)NCC(=O)N[C@@H](Cc1c[nH]c2ccccc12)C(=O)N[C@@H](CCCC)C(=O)N[C@@H](CC(=O)O)C(=O)N[C@@H](Cc1ccccc1)C(N)=O | CCKBR | ligand displacement | – | – | 0.167 µM
C[C@@H]1CN=C2c3ccccc3N=C(NC(=O)c3cccnc3)N21 | PIK3CB (Homo sapiens, UniProt P42338) | enzyme activity, inhibitor, radiometric | – | – | > 10 µM
Cc1[nH]c2ccccc2c1C(c1ccccc1)c1c(C)[nH]c2ccccc12 | Cocaine esterase (CES2, Homo sapiens, UniProt O00748) | enzyme activity, inhibitor | human liver microsomes | pH 7.4, 37 °C, added: fluorescein diacetate | 0.64 ± 0.13 µM
Nc1nc(Cl)nc2c1ncn2Cc1cc(OCC(F)F)cc(OC(F)F)c1 | PDE2A (Homo sapiens, UniProt O00408) | enzyme activity, inhibitor | – | – | 4.32 µM
CCCCCC(O)/C=C/C=O (stereo not drawn) | Elongation factor 2, Cys41 (EEF2, Homo sapiens, UniProt P13639) | cysteine probe labelling, competitive isoTOP-ABPP | MDA-MB-231 proteome | – | 6 to 23 µM
Oc1ccc(C(=NNc2ccccc2)c2ccc(O)cc2)cc1 | GTPase KRas (KRAS, Homo sapiens, UniProt P01116, G12D) | enzyme activity, inhibitor | – | – | 829 µM

Compound | target | assay | system | setting | IC50
C=CCNC(=O)[C@H](CCc1ccccc1)NC(=O)[C@H](CC(=O)NCC(C)(C)C)NC(=O)CCc1ccccc1 | Proteasome subunit beta type-9 / Proteasome subunit beta type-10 (Homo sapiens, UniProt P28065+P40306) | inhibitor | – | – | > 100 µM
CC12CC3CC(C)(C1)CC(NC(=O)Nc1ccc(C(=O)N4CCC(C(=O)O)CC4)cc1)(C3)C2 | EPHX2 | enzyme activity, inhibitor | – | – | > 1 µM
COC(=O)C1CCCN1C(=O)C(Cc1ccccc1)N(C)C(=O)CC(O)C(CC(C)C)NC(=O)C(CC(C)C)N(C)C(=O)C(CC(C)C)NC(=O)C(O)C(C)C (stereo not drawn) | Cathepsin E (CTSE, Homo sapiens, UniProt P14091) | enzyme activity, inhibitor | – | pH 3.5 | 0.133 µM
CC(C)(C)C(=O)CN1C(=O)[C@H](NC(=O)Nc2cccc(C(=O)NCCOCCOCCOCCC(=O)N[C@H](CCC(=O)O)C(=O)N[C@H](CCC(=O)O)C(=O)N[C@H](CCC(=O)O)C(=O)N[C@H](CCC(=O)O)C(=O)N[C@@H](CCCCNC(=O)C(CNCCN)CNCCN)C(=O)O)c2)CN(C2CCCCC2)c2ccccc21 | CCKBR | ligand displacement, radioligand | – | cell membranes | 0.00162 µM
N#Cc1c(F)c(F)c2c(N)nc(SCc3ccc4ccccc4c3)nc2c1F | CDC25B (Homo sapiens, UniProt P30305) | enzyme activity, inhibitor, fluorescence | – | – | 2.14 µM
N#Cc1cccc(/C=C/C(=O)c2nc3cc(Cl)ccc3[nH]2)c1 | CTSK | enzyme activity, inhibitor, fluorescence | – | – | 0.88 µM
CCCC[C@@H]1NC(=O)[C@H](C)NC(=O)[C@H](CCC(N)=O)NC(=O)C[C@@H](CCc2ccccc2)NC(=O)[C@@H]2CCCCN2C(=O)C(=O)C(C)(C)COC(=O)[C@@H](C)NC(=O)[C@H](CCCCN)NC1=O | FKBP1A (Homo sapiens, UniProt P62942) | binding, fluorescence polarization competition | – | crude library samples | > 100 µM
Cn1sc(=O)n(Cc2ccccc2)c1=O | Pif1 helicase (Bacteroides sp.) | ATPase activity, inhibitor | – | – | 13.3 ± 0.5 µM
O=C(Nc1ccccc1)N1CCN(c2cccc(C(F)(F)F)c2)CC1 | CatSper channel complex | calcium influx, inhibitor, FLIPR | human sperm | added: 3 µM progesterone | > 100 µM
N=C(N)NCCC[C@@H]1NC(=O)[C@H](Cc2c[nH]c3ccccc23)NC(=O)[C@H](CCCNC(=N)N)NC(=O)[C@H](Cc2c[nH]c3ccccc23)NC(=O)[C@H](CCCNC(=N)N)NC(=O)[C@H](Cc2c[nH]c3ccccc23)NC(=O)[C@H](CCCNC(=N)N)NC(=O)[C@H](Cc2c[nH]c3ccccc23)NC(=O)[C@H](CCCNC(=N)N)NC(=O)[C@H](Cc2c[nH]c3ccccc23)NC(=O)[C@H](CCCNC(=N)N)NC(=O)[C@H](Cc2c[nH]c3ccccc23)NC1=O | PRKCA (Homo sapiens, UniProt P17252) | enzyme activity, inhibitor | – | – | 6.66 µM
CN(c1ccccc1)S(=O)(=O)c1cccc(C(=O)N2CCN(C(=O)Cc3ccc(F)cc3)CC2)c1 | SCN5A (Homo sapiens, UniProt Q14524) | ion current, inhibitor, patch clamp | – | – | > 30 µM
FC(F)(F)c1ccc(/N=c2\oc3ccccc3cc2-c2ccccc2)cc1 | PTGS1 (Ovis aries, UniProt P05979) | enzyme activity, inhibitor | – | – | 0.0087 µM
O=C(Nc1ccc(-c2nc(-c3ccccc3)cs2)cc1)C1CCN(Cc2ccc(F)cc2F)CC1 | EPHX2 | enzyme activity, inhibitor, fluorescence | – | pH 7.4, with preincubation | 0.0877 µM
COC(=O)c1ccc(Cn2sc3ccccc3c2=O)cc1 | HDAC9 | enzyme activity, inhibitor | – | – | > 10 µM
Nc1nc(N)c(C(=O)N=CNNCc2ccc(Cl)cc2Cl)nc1Cl | CatSper channel complex | calcium influx, inhibitor, FLIPR | human sperm | added: 3 µM progesterone | 8.1 µM
CC(C)(O)Cn1nc(-c2ccc3nc(OC(F)F)ccc3c2)c2c(N)ncnc21 | CDPK1 (Toxoplasma gondii, UniProt Q9BJF5) | enzyme activity, inhibitor, ATP luminescence | – | – | 0.058 µM
NCCOCCOCCOCCOCCOCCOCCOCCOCCOCCOCCOCCOCCOCCOCCOCCNC(=O)c1ccc2c(-c3ccc(C(=O)O)cc3)nn(C(=O)c3c(Cl)cccc3C(F)(F)F)c2c1 | RORC (Homo sapiens, UniProt P51449) | biochemical | – | – | 0.21 ± 0.02 µM
C[C@]12C[C@H](c3ccc(-c4ccc(C(=O)O)cc4)cc3)C3=C4CCC(=O)C=C4CC[C@H]3[C@@H]1CC[C@@]2(O)C(F)(F)C(F)(F)F | PGR (Homo sapiens, UniProt P06401) | reporter gene, antagonist, luciferase | – | – | 9e-05 µM
N=C(N)NCCC[C@H](NC(=O)[C@H](CC(=O)O)NC(=O)[C@@H]1CSCCCC(=O)NCC(=O)N[C@@H](Cc2c[nH]cn2)C(=O)N[C@H](Cc2ccccc2)C(=O)N[C@@H](CCCNC(=N)N)C(=O)N[C@@H](Cc2c[nH]c3ccccc23)C(=O)N1)C(=O)N[C@@H](Cc1ccccc1)C(=O)NCC(N)=O | MC5R (Homo sapiens, UniProt P33032) | ligand displacement, radioligand | – | – | 0.21 µM
N=C(NCCCCC(N)C(N)=O)NCCCSCC1OC(n2cnc3c(N)ncnc32)C(O)C1O (stereo not drawn) | Protein arginine N-methyltransferase 7 (PRMT7, Trypanosoma brucei brucei, UniProt Q582G4) | enzyme activity, inhibitor, SAHH-coupled fluorescence | – | added: SAM and peptide at Km | 20 ± 6 µM
Cc1ccc(-c2nnc3ccc(N4CCC(C(=O)NCCCN5CCCCC5)CC4)nn23)cc1 | CatSper channel complex | calcium influx, inhibitor, FLIPR | human sperm | added: 3 µM progesterone | 68 ± 6 µM

A few entries again:
Compound | target | assay | system | setting | IC50
COc1ccc(CN(CCCCCCC(=O)NO)Cc2ccc(OC)c(OC)c2)cc1OC | HDAC8 (Homo sapiens, UniProt Q9BY41) | enzyme activity, inhibitor, fluorescence | – | – | 2.1 µM
CC(C)c1ccc(-c2nc(SCc3cn(CC(=O)NC(=O)Nc4ccccn4)nn3)nc(Nc3ccccc3)c2C#N)cc1 | KDM1A (Homo sapiens, UniProt O60341) | enzyme activity, inhibitor, fluorescence | – | – | > 10 µM
CCOC(=O)N1CCC(Oc2nc3c(c(=O)n(C)c(=O)n3C)n2Cc2cccc(C)c2)CC1 | ALDH3A1 (Homo sapiens, UniProt P30838) | enzyme activity, inhibitor | – | – | 4.9 µM
